Published values of several laboratories.
Each line is one published result; not all experiments were run side by side.

COc1cc(Nc2ncc3c(n2)-c2ccc(Cl)cc2C(c2c(F)cccc2OC)=NC3)ccc1C(=O)O — result for “patients with adverse event”: 13% (item: increased TSH, grade 1; cancer patients, phase 1/2; oral, dose not given, together with: pembrolizumab).
For COc1ccc([C@@H](O)c2cc(-c3ncnc4cc(N5CCOCC5)ccc34)c(F)cc2Cl)nn1, “patients with TEAE” read 21% (item: Asthenia; locally advanced rectal cancer patients; dose not given, all dose groups, together with: capecitabine plus radiotherapy).
Cc1cc(-c2nnc(N)nc2-c2ccc(F)cc2)cc(Cl)n1: “patients with immune-mediated AE” 0% (item: rash; post-IO other solid tumour patients; oral, 100 mg once daily, treatment-related, grade 1).
Under “patients discontinuing for AE”, C[C@@H](Nc1cc(F)cc(F)c1)c1cc(C(=O)N(C)C)cc2c(=O)cc(N3CCOCC3)oc12 is recorded as 0% (item: Syncope; advanced solid tumour patients; oral, dose not given, dose expansion).
For O=C(Nc1nc2cccc(-c3ccc(CN4CCS(=O)(=O)CC4)cc3)n2n1)C1CC1, “patients with Headache” read 8.3% (rheumatoid arthritis patients; oral, 100 mg twice daily, 4 weeks, TEAE regardless of relatedness).
Under “patients with adverse event”, Cc1cc(NC2CCN(C(=O)OC3CCN(C(=O)/C=C/CN(C)C)C3)CC2)n2ncc(C(C)C)c2n1 (stereo not drawn) is recorded as 5% (Phase I dose escalation CTCAE v4.0, item: ALT increased; patients with advanced solid tumours; dose not given, QD dosing grade 3 or higher).
For CNC(=O)c1ccc(-c2cnc3ncc(Cc4ccc5ncccc5c4)n3n2)cc1F, “patients with adverse event” read 0% (item: Pyrexia; hepatocellular carcinoma patients; oral, 600 mg twice daily, expansion cohort, grade 3-4).
CCOc1c([C@H](C)n2nc(C)c3c(N)ncnc32)cc(Cl)c(F)c1[C@@H]1CNC(=O)C1 — result for “patients with HR above 100 bpm”: 0% (ECG; previously treated B-cell malignancy patients; oral, 15 mg once daily, baseline below thresholds).
Under “patients with serious TEAEs”, COc1cc2nccc(Oc3ccc(NC(=O)c4cc5c(n(-c6ccccc6)c4=O)CCCC5=O)nc3)c2cc1OC is recorded as 90% (patients with relapsed/refractory AML; oral, 3 mg once daily).

Excerpt of the above:
For COc1ccc([C@@H](O)c2cc(-c3ncnc4cc(N5CCOCC5)ccc34)c(F)cc2Cl)nn1, “patients with TEAE” read 21% (item: Asthenia; locally advanced rectal cancer patients; dose not given, all dose groups, together with: capecitabine plus radiotherapy).
